Assay results of several laboratories.
Numbered parts are unrelated; each lists some results of a single study.
Sequence of UniProt P08047 (whole entry, looked up): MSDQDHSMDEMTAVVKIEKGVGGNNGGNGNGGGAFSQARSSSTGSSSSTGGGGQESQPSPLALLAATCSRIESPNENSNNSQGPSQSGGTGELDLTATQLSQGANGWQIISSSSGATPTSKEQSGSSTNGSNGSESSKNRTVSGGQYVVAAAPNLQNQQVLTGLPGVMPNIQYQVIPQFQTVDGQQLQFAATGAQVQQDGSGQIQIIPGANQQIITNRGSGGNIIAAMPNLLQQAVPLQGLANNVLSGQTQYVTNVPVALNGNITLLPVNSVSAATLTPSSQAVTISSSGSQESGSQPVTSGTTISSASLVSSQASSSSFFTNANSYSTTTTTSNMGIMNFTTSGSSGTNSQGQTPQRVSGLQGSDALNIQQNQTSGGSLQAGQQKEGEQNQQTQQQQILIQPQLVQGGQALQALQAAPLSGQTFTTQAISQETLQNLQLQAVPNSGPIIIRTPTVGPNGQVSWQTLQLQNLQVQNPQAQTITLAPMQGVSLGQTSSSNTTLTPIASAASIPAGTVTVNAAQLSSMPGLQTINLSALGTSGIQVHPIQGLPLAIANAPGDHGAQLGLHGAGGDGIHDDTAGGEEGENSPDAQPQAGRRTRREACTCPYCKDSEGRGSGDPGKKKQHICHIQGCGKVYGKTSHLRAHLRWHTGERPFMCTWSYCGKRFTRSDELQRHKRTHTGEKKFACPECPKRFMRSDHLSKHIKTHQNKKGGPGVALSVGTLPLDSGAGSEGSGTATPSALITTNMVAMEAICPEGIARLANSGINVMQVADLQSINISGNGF
Sequence of UniProt Q99583 (220-300, looked up): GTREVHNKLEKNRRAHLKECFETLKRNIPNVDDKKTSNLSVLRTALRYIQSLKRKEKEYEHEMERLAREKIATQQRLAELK

Sample 1
Target: Histone acetyltransferase KAT6A, winged helix 2, GST fusion (KAT6A, Homo sapiens, UniProt Q92794, residues 85-181)
Method: protein binding microarray
Molecule type: double-stranded DNA, one strand shown
Medium: in vitro
Tested at: not given
Notes: 8-mer, flanks averaged, mean of 2 arrays, mostly near background
Baseline: not given
Direction: higher = stronger binding
Target sequence (chain): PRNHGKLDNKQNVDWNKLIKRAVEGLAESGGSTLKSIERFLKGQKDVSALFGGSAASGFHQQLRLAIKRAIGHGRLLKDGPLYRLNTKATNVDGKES
Sequence	E-score
ACAATAAA	-0.0525
AGTACTGC	-0.167
CGCAAGTA	-0.00698
ACCGCGAG	0.2
CCCACAAA	0.223
ACTTCGGA	0.0464
CATGGTCG	0.0411
ATTGACTC	0.0151

Sample 2
Cell line: HEK-293T/ACE2
Read-out: pseudovirus infection
Organism: VSV pseudotyped with SARS-CoV-2 spike
Tested at: concentration not given
Baseline: vehicle-treated
SMILES	GFP-positive cells [%]
Nc1nc2[nH]cc(CCc3ccc(C(=O)N[C@@H](CCC(=O)[O-])C(=O)[O-])cc3)c2c(=O)[nH]1.Nc1nc2[nH]cc(CCc3ccc(C(=O)N[C@@H](CCC(=O)[O-])C(=O)[O-])cc3)c2c(=O)[nH]1.O.O.O.O.O.[Na+].[Na+].[Na+].[Na+]	62.3
COC(=O)c1ccc2c(c1)NC(=O)/C2=C(\Nc1ccc(N(C)C(=O)CN2CCN(C)CC2)cc1)c1ccccc1	78.4
N#CC[C@H](C1CCCC1)n1cc(-c2ncnc3[nH]ccc23)cn1	68.4

Sample 3
Target: Replicase polyprotein 1ab, polymerase (rep, Severe acute respiratory syndrome coronavirus 2, UniProt P0DTD1)
Read-out: enzyme activity
Action: inhibitor
Tested at: 20 µM
SMILES	inhibition [%]
NCCS	0.7
COc1ccc2nc(NC(=O)Nc3ccccc3)sc2c1	-7.23
Cc1cnc(Nc2ccc(OCCN3CCCC3)cc2)nc1Nc1cccc(S(=O)(=O)NC(C)(C)C)c1	4.6
c1cc2c3c(c1)c1c(n3CCNC2)CCCC1	6.16
COc1cc(/C=C/C(=O)CC(=O)/C=C/c2ccc(O)c(OC)c2)ccc1O	9.98
O=C(O)CN1CCN(CC(=O)O)CCN(CC(=O)O)CCN(CC(=O)O)CC1	-4.79
CCCCCCCC/C=C/CCCCCCCC(=O)OC[C@H]1O[C@@H](n2ccc(N)nc2=O)C(F)(F)[C@@H]1O	0.58
CCC1(C2=NCCN2)Cc2ccccc2O1 (stereo not drawn)	-0.53
CCOC(=O)CCC(=O)O[C@H]1[C@H](O[C@@H]2[C@@H](C)[C@H](O[C@H]3C[C@@](C)(OC)[C@@H](O)[C@H](C)O3)[C@@H](C)C(=O)O[C@H](CC)[C@@](C)(O)[C@H](O)[C@@H](C)C(=O)[C@H](C)C[C@@]2(C)O)O[C@H](C)C[C@@H]1N(C)C	7.78
C=CC(C)(C)c1cc(/C=C/C(=O)c2ccc(O)cc2)c(OC)cc1O	-0.72
O=C1C[C@@H](c2ccc(O)cc2)Oc2cc(O)ccc21	3.44
CN(NC(=O)CC(=O)NN(C)C(=S)c1ccccc1)C(=S)c1ccccc1	-1.38
COc1cc(N2CCC(O)CC2)ccc1Nc1cc(Nc2ccccc2S(=O)(=O)C(C)C)c2cc[nH]c2n1	4.16
C=CCn1c(=O)c2cnc(Nc3ccc(N4CCN(C)CC4)cc3)nc2n1-c1cccc(C(C)(C)O)n1	2.9
COc1cc2ncnc(Nc3ccc(O)c(Br)c3)c2cc1OC	3.75
COc1cccc([C@@]2(O)CCCC[C@@H]2CN(C)C)c1	-2.47
COc1cc2c3cc1Oc1cc(ccc1O)C[C@@H]1c4c(cc(OC)c(O)c4Oc4ccc(cc4)C[C@@H]3N(C)CC2)CC[N+]1(C)C	0.11
c1ccc(CN2CCC3(CCc4ccccc43)CC2)cc1	-0.8
COc1cc(-c2ccc(/N=N/c3ccc4c(S(=O)(=O)O)cc(S(=O)(=O)O)c(N)c4c3O)c(OC)c2)ccc1/N=N/c1ccc2c(S(=O)(=O)O)cc(S(=O)(=O)O)c(N)c2c1O	99.9
OC[C@H]1O[C@@H](Oc2cc(O)cc(/C=C/c3ccc(O)cc3)c2)[C@H](O)[C@@H](O)[C@@H]1O	-3.04
CC(C)NC(=O)COc1cccc(-c2nc(Nc3ccc4[nH]ncc4c3)c3ccccc3n2)c1	0.82
CC(COc1ccccc1)N(CCCl)Cc1ccccc1 (stereo not drawn)	-0.87
Cc1ccc2c(c1CCC(=O)O)CC[C@@H](NS(=O)(=O)c1ccc(Cl)cc1)C2	1.17
CCOc1ccc(/C=C2\NCCc3cc(OCC)c(OCC)cc32)cc1OCC	-2.73
O=C1COc2c(CCNCCN(C(=O)CCNCCc3ccc(Cl)c(Cl)c3)C3CCCCC3)ccc(O)c2N1	0.26

Sample 4
Structure (SMILES): O=C(c1ccc(Cl)cc1)c1cc([N+](=O)[O-])ccc1N1CCOCC1
Target: Replicase polyprotein 1ab, main protease (rep, Severe acute respiratory syndrome coronavirus 2, UniProt P0DTD1)
Read-out: enzyme activity
Tested at: 20 µM
action	notes	inhibition [%]
inhibitor	primary screen	63.2
inhibitor		60.2
	with DTT	60.3

Sample 5
Target: Centromere-binding protein 1, full length, His-tagged (CBF1, Saccharomyces cerevisiae, UniProt P17106, residues 1-351)
Sequence of UniProt P17106 (whole entry, looked up): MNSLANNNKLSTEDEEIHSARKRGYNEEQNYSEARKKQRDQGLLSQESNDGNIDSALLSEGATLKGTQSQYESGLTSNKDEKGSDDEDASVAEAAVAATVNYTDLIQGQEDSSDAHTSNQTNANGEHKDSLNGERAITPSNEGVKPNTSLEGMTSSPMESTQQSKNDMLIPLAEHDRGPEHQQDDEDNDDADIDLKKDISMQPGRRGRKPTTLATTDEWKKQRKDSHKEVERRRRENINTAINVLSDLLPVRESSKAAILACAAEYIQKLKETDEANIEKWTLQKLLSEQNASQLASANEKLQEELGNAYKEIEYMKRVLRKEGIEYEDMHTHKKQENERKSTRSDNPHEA
Method: competition protein-binding microarray
Molecule type: double-stranded DNA, one strand shown
Medium: in vitro
Tested at: 2 µM
Notes: whole 60-bp probe, lowest competitor level
With: Pho4 competitor, 0.05 µM
Direction: higher = stronger binding
All sequences stand within: … GTCTTGATTCGCTTGACGCTGCTG
Sequence	fluorescence intensity
AAGAATTTTATATGGCTTGTGATGAGACTGACGTCC	84.3 a.u.
CTTTCCCGATCTTGTCACAGTACTTTAGCACATTTG	85.6 a.u.
CATACCCAACCTTGATTAGTGGGTGAAGATATTTGT	79.4 a.u.
CTTCTGTAAATTTGATGCGTGGGTGGACGCGCCCCG	95 a.u.
CGGAGAACAAAAGTAGGCGTGGGTAGTGAAGATCTT	59.8 a.u.
ACCGGTTGATGTACTAACGTGACGAACAGTTTCATC	387 a.u.
AACAGGCTTGGATGGTACGTGCTTTCCCTTGTCGAG	52.5 a.u.
AAATTACTAAGTTGACACGTGTTTTACCCCGTATGA	1680 a.u.

Single results of other studies
Method: protein-binding microarray
Molecule type: double-stranded DNA, one strand shown
Medium: in vitro
Tested at: not given
Notes: k-mer, scored over probes, only values ≥0.25
Direction: higher = stronger binding
SOX2 HMG box: Transcription factor SOX-2, HMG box (SOX2, Homo sapiens, UniProt P48431, residues 19-118)
Sequence of UniProt P48431 (19-118, looked up): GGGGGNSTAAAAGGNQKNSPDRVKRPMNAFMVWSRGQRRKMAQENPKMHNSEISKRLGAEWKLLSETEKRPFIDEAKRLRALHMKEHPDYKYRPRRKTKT
Sequence	target	E-score
CACCCCGC	Max-binding protein MNT, bHLH-zipper, MAX partner unstated (MNT, Homo sapiens, UniProt Q99583, residues 220-300)	0.283
ATTGTTA	SOX2 HMG box	0.459
TATGCTCA	Transcription factor Sp1 (SP1, Homo sapiens, UniProt P08047, residues 1-785, full length assumed)	0.264
AGAACAA	SOX2 HMG box	0.352

For quick reference, copied from above (sample 3):
SMILES	inhibition [%]
O=C(O)CN1CCN(CC(=O)O)CCN(CC(=O)O)CCN(CC(=O)O)CC1	-4.79
CCCCCCCC/C=C/CCCCCCCC(=O)OC[C@H]1O[C@@H](n2ccc(N)nc2=O)C(F)(F)[C@@H]1O	0.58
CCC1(C2=NCCN2)Cc2ccccc2O1 (stereo not drawn)	-0.53
CCOC(=O)CCC(=O)O[C@H]1[C@H](O[C@@H]2[C@@H](C)[C@H](O[C@H]3C[C@@](C)(OC)[C@@H](O)[C@H](C)O3)[C@@H](C)C(=O)O[C@H](CC)[C@@](C)(O)[C@H](O)[C@@H](C)C(=O)[C@H](C)C[C@@]2(C)O)O[C@H](C)C[C@@H]1N(C)C	7.78
C=CC(C)(C)c1cc(/C=C/C(=O)c2ccc(O)cc2)c(OC)cc1O	-0.72
